Results of several laboratories.
Each numbered part is a random draw from the data of one study; scales do not carry over between parts. Positions count from the first letter of the parent shown.

Sample 1 — target: CCND2, cyclin fold, Cln2 fusion (human); method: yeast growth competition, sequencing; medium: yeast; setting: weak parent motif; relative to: not given; reading: higher = stronger binding
Starting sequence: MASTL docking peptide (human); PMIAKNLMCELDE; partner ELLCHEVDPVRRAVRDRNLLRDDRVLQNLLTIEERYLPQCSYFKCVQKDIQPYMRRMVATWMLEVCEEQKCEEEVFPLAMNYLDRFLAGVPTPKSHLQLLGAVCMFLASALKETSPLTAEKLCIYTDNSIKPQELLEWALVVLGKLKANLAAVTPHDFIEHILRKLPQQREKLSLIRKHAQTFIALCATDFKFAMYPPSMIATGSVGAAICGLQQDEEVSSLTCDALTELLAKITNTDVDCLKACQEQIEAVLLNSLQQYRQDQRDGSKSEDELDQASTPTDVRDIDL
| Change | normalised enrichment score |
| --- | --- |
| K5T | -0.217 |
| A4D | 0.362 |
| M8K | -0.0649 |
| C9S | 0.0752 |
| A4M | 0.00156 |
| L11H | 0.253 |
| D12T | 0.19 |
| L7Y | 0.653 |
| L7M | -0.212 |
| A4E | 0.0792 |
| M8W | 0.123 |
| M2P | 0.205 |
| N6S | -0.0755 |
| L11C | -0.204 |
| L7G | -0.156 |
| M8S | 0.118 |
| M8H | -0.111 |
| D12L | -0.0635 |
| E10A | 0.0179 |
| D12H | 0.111 |
| M2T | -0.0579 |
| N6Y | -0.111 |
| K5C | 0.337 |
| K5R | 0.0203 |
| A4C | -0.00352 |

Sample 2 — method: RNA Bind-n-Seq; molecule type: RNA; medium: in vitro; concentration: 20 nM; setting: 6-mer, flanks averaged, single round; together with: 150 mM LiCl; relative to: input library; reading: higher = stronger binding
Target: TAR DNA-binding protein 43, full length, His tag (TARDBP, Homo sapiens, UniProt Q13148, residues 1-414)
| Strand | 6-mer enrichment (R) |
| --- | --- |
| UUUCGA | 0.909 |
| UCAUAA | 0.875 |
| AGCGCU | 0.893 |
| GCGUAG | 1.04 |
| AUAAGG | 0.955 |
| AAUCCA | 0.82 |
| UGAUGU | 1.18 |
| CGUCGC | 0.956 |
| UUGGUU | 1.22 |
| AUCAGU | 0.88 |
| ACCUGU | 0.888 |
| UCGCUU | 0.913 |
| CACGUU | 0.91 |
| CGAGUU | 0.939 |
| ACAGCA | 0.85 |
| GUUGGA | 1.12 |
| GCCUUG | 1.23 |
| GCCCGG | 1.03 |

Sample 3 — method: RNA Bind-n-Seq; molecule type: RNA; medium: in vitro; concentration: 100 nM; relative to: input RNA pool; reading: higher = stronger binding
Target: RING finger protein unkempt homolog, zinc fingers 1-6, SBP tag (UNK, Homo sapiens, UniProt Q9C0B0, residues 30-357)
Sequence of UniProt Q9C0B0 (30-357, looked up): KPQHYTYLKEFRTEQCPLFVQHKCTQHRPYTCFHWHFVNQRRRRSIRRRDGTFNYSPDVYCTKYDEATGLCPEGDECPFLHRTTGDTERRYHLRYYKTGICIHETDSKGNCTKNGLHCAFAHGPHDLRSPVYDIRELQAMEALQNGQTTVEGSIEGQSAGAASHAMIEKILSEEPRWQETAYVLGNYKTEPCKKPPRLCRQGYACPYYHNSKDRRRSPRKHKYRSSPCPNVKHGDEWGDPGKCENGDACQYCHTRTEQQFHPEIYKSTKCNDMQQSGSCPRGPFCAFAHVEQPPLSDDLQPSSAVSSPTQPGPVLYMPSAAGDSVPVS
Setting: RNA with constant flanks, vertebrate orthologous sites, ends assumed
Shared flanks, not repeated: GGGAGUUCUACAGUCCGACGAUC … CAACAGAGGAUUGAGCAUCA
| Strand | bound/input enrichment [ratio] |
| --- | --- |
| UUUUAUUGAUCAGGUCUGUAAAUGUGCACUAAAACAAUCAGAGUUUAUUUAUGAACAGAGUAGUUUAUUUAAAGAGCAGGUCUUGUUCUCUUGGUACUGUGGUAUGCGCUCAUUCCUGUG | 0.43 |
| UUGGGAUCAGCUCCCCAAAUAGGAAUAGUAGUAAAAAAAAUAAGCAAAAUGAUAUUUGUAUAGAAAAAACAGAAGUUAAAUCAUGUAAAGUAAAUGUUGCCAAUAUUCCAGGCCCCAAAG | 1.9 |
| CUCCCCACCACCAUCUCCUGUUUUUCUCAAGAAGUCCUGCUACCCCUCUUUUAGGCUGAGGUGUACAGAGUAAAACCAAUCGGAGGUUUAUAAUUUGGGGAAAAGUGUUUUUGAUUCUUU | 0.501 |
| CCCUCUGAAUCCCAUAUCUUCUGUUUCAUAGUGCAGAAGUAUUGUUUUCAAUUACAUUAUUAGUGGACUUGUUUUAAUUUUAGGGAAAUUUUCUGUACUGAUACUGUGAGCUUACAUGGA | 4.19 |
| GCACAUGCCGCUAUCACCAAAAGUAAACUACCACUUUUCAAAUUUCAUUCAGAGCUGUUUUAGUGUUUCCUAUUCCCCACCUUUCCCACUACUUUCAAUGAUGUUUUCCUUCUGACACUU | 2.11 |
| UGCUGUUAAUGCACUGUAUUCCAGGCAUCGUCUGAAUUUAGUGUAAUCUAGGAGAUUUUAUAGUUUUAUUUUAAUGAAGUAUGGAUCGAGAAAAAGUUGUUAGGAGUAUGUAGUCUUUUA | 2.3 |
| CUGAAGCUUUGUGUUUGGCUGCACCUGCAUAAGCUGCUACAAAUAGAAUAAAGAAUUUCAUAGCCUGUAUCUAUCAUUAGAUGCAUGGAAAAUGGGCUUUGCACACAAUGGGUUUGGAGC | 1.77 |
| UCCUCAACGUGUUCUAGCUUGUGAUCCUUCAAAGUUGGGUCAUGCGUUAUUGCUAGAUAGUAGAAGUUUUCACUUCUCUCCUUCCACUGAUCAGAGAAACAGACAUUAAAAACAGGAAUA | 0.573 |

Sample 4 — target: JUN, bZIP domain (human); method: DHFR protein complementation; medium: yeast; relative to: wild-type JUN-FOS pair; reading: higher = stronger binding
Setting: single substitutions, most at no-binding floor
Starting sequence: JUN, bZIP domain (human); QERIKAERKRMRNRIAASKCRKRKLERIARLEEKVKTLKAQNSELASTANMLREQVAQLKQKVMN; partner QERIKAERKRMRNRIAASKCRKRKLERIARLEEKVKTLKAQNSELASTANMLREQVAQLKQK
| Change | binding fitness |
| --- | --- |
| Q55V | -0.564 natural log |
| E44R | -0.448 natural log |
| I28W | -0.951 natural log |
| L45D | -1.04 natural log |
| A40W | -0.685 natural log |
| V35Y | -0.582 natural log |
| E32N | -0.677 natural log |
| V56L | -0.166 natural log |
| T37I | -0.164 natural log |
| Q55M | -0.337 natural log |
| A40I | -0.303 natural log |
| A29P | -0.989 natural log |
| R30N | -0.297 natural log |
| A29T | -0.359 natural log |
| E32D | -0.852 natural log |
| L45F | -1.07 natural log |

Sample 5 — method: protein binding microarray; molecule type: double-stranded DNA, one strand shown; medium: in vitro; concentration: not given; relative to: not given; reading: higher = stronger binding
Target: Histone acetyltransferase KAT6A, both winged helices, GST fusion (KAT6A, Homo sapiens, UniProt Q92794, residues 1-181)
Setting: 8-mer, flanks averaged, mean of 2 arrays, mostly near background
Residues (chain): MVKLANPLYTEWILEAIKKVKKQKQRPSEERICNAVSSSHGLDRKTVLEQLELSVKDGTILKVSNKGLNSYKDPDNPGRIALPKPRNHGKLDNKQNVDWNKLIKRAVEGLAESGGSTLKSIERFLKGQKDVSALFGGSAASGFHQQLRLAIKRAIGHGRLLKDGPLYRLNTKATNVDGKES
| Strand | E-score |
| --- | --- |
| CCCAGCTC | -0.217 |
| GACTCAAC | 0.0716 |
| CCTTCTTC | -0.125 |
| AACCGACC | 0.107 |
| CTTGTTCA | -0.027 |
| ATATCTTC | -0.12 |
| GCATAGGA | -0.0529 |
| GATCGCTA | 0.0972 |
| CCTTAGCG | 0.166 |
| AATTTAAT | 0.0446 |
| CCCTCAAA | -0.0757 |
| TCGTTTCA | -0.0177 |
| GAGCAACA | -0.053 |
| TGTCAAAA | -0.0655 |
| GAGGTTCC | 0.0783 |
| CAGCGGCA | 0.188 |
| GATACTAC | 0.0842 |
| CAATGTCG | 0.0507 |
| AATTAAGG | -0.187 |
| ATGATGGG | -0.175 |
| ACTTTTAA | -0.049 |
| AATATAAG | 0.0205 |
| TATAAATA | 0.0118 |
| AGCTGCGG | 0.116 |
| AGGACGGA | 0.137 |

Single results of other studies
| Substance | target | test | test system | setting | how to read | quantity | result |
| --- | --- | --- | --- | --- | --- | --- | --- |
| PhoQ, residues 284 288 289 292 302 303 DDMDFR | PhoP, residues 12 14 15 18 19 VQALL (Escherichia coli, UniProt P23836) | Sort-seq, measured: YFP reporter | E. coli | PhoQ-PhoP variant library, together with: 10 µM Mg2+ | relative to: high Mg2+ state, higher = stronger signaling | fold induction | 0.799 |

Some of these lines once more (sample 5):
| Strand | E-score |
| --- | --- |
| GAGCAACA | -0.053 |
| CCCAGCTC | -0.217 |
| CAATGTCG | 0.0507 |
| TGTCAAAA | -0.0655 |
| GCATAGGA | -0.0529 |
| AATATAAG | 0.0205 |
| GAGGTTCC | 0.0783 |
| CCTTAGCG | 0.166 |
| ATGATGGG | -0.175 |
| AACCGACC | 0.107 |
| CCCTCAAA | -0.0757 |
| TATAAATA | 0.0118 |
| AGGACGGA | 0.137 |
